Measured values collected from several papers.
Each numbered part is a random draw from the data of one study; scales do not carry over between parts.
UniProt Q9Y3S1, sequence (whole entry, looked up): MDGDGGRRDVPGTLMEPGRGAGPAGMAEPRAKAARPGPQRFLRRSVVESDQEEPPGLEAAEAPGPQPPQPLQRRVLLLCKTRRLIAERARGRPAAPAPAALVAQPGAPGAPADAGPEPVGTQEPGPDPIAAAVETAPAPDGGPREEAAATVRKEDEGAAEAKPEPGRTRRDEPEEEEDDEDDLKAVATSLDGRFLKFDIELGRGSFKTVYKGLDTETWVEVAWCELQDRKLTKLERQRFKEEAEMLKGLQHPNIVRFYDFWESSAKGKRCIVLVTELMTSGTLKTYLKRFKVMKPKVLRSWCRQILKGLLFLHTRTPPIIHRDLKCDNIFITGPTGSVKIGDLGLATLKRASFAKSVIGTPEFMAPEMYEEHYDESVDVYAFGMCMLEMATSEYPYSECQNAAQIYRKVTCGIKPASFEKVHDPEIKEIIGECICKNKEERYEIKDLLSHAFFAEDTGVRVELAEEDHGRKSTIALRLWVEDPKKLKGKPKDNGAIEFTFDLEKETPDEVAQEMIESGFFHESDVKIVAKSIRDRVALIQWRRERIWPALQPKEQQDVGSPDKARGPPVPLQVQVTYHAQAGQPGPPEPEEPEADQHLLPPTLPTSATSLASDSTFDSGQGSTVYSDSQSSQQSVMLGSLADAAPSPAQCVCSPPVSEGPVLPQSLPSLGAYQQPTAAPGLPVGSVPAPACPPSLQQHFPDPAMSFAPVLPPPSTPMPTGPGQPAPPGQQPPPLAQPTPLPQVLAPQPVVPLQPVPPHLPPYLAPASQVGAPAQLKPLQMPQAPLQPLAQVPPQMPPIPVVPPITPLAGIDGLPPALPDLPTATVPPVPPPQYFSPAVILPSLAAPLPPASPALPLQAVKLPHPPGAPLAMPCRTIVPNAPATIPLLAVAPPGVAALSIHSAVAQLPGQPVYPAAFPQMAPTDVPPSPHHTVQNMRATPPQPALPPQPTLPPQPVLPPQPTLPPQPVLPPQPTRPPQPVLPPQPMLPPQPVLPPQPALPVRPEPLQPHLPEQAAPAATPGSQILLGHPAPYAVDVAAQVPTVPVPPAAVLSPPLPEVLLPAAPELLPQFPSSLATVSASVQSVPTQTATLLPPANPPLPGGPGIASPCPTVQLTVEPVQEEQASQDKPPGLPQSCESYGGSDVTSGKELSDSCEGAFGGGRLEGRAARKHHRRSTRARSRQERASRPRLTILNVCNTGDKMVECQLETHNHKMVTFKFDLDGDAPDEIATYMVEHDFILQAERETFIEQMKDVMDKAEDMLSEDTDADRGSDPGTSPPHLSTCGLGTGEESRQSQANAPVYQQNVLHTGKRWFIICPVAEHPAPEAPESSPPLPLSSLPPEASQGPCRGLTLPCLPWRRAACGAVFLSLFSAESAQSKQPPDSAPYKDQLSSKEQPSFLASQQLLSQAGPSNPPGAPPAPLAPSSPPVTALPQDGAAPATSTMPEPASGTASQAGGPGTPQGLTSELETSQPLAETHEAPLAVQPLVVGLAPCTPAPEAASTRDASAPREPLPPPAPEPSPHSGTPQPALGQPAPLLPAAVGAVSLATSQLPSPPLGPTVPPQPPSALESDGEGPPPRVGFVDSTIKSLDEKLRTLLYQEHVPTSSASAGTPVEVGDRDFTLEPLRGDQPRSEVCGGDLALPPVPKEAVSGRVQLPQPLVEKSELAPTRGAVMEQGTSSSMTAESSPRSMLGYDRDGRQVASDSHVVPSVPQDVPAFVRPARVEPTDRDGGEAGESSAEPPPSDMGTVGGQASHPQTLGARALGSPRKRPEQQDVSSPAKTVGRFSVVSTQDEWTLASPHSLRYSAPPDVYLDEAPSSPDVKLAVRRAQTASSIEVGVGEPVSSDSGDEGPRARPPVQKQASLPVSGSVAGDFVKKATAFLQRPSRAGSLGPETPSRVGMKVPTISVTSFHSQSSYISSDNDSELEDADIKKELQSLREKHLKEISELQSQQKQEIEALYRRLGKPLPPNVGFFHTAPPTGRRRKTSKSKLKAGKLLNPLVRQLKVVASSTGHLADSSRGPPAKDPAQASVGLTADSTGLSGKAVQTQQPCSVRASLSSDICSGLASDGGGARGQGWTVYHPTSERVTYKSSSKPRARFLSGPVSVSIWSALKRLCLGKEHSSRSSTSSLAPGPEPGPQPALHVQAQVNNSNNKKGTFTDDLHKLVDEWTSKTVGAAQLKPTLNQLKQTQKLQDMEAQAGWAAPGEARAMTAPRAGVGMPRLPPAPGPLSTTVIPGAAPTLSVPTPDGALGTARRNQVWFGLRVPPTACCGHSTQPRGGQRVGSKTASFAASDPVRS

Block 1
Target: PABPC1L2, full length, GST fusion (mouse, UniProt A0ABA7IW68)
Technique: RNAcompete
Molecule type: RNA
Matrix: in vitro
Concentration: 20 nM
Setting: 7-mer, probes averaged, single round
Relative to: mean of 7-mers
Direction: higher = stronger binding
Construct (chain): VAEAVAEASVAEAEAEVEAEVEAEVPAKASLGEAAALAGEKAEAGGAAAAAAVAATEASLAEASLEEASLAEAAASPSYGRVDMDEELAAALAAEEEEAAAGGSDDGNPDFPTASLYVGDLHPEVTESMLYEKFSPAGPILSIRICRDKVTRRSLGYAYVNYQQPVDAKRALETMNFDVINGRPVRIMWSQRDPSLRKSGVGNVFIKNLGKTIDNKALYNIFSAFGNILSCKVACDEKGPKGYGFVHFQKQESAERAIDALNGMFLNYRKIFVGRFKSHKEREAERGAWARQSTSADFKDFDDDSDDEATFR
Sequence | 7-mer Z-score
AAGUUAC | 0.155
UAGGAAU | -0.0718
CUGAUUG | -0.0881
UCGGUCA | -0.331
GGUGAUC | 0.0515
CACCAUG | -0.11
ACAAUAU | 0.312
CCUCAUG | -0.358

Block 2
Target: Runt-related transcription factor 1, full length (RUNX1, Homo sapiens, UniProt Q01196-8, residues 1-480)
Technique: protein-binding microarray
Molecule type: hairpin DNA
Matrix: in vitro
Concentration: not given
Setting: whole hairpin DNA, median over replicate spots
Relative to: not given
Direction: higher = stronger binding
Sequence | median fluorescence [a.u.]
GAGGCCCGACCGCAACAGCCTCCTGGCTGTTGCGGTCGGGCCTCACACTC (5mC at 37) | 4320
CTCAGTTTTGTGGGCTGGACTCCTGTCCAGCCCACAAAACTGAGACACTC | 2230
GAGGCCCAACCGCAAGAGCCTCCTGGCTCTTGCGGTTGGGCCTCACACTC (5mC at 29) | 7270
GAGGCCTGCGGTGGTTGGCCTCCTGGCCAACCACCGCAGGCCTCACACTC | 2730
GAGGCCTGTCGCGGTTGGCCTCCTGGCCAACCGCGACAGGCCTCACACTC (5mC at 12 32) | 1760
CTCAGTTCTGTGGCCTGGACTCCTGTCCAGGCCACAGAACTGAGACACTC | 1910
GAGGCCCACCCGCAACAGCCTCCTGGCTGTTGCGGGTGGGCCTCACACTC | 2890
GAGGCCTTTTGCGGTTGGCCTCCTGGCCAACCGCAAAAGGCCTCACACTC | 7670

Block 3
Target: Centromere-binding protein 1, full length, N-terminal tag (CBF1, Saccharomyces cerevisiae, UniProt P17106, residues 1-351)
UniProt P17106, sequence (whole entry, looked up): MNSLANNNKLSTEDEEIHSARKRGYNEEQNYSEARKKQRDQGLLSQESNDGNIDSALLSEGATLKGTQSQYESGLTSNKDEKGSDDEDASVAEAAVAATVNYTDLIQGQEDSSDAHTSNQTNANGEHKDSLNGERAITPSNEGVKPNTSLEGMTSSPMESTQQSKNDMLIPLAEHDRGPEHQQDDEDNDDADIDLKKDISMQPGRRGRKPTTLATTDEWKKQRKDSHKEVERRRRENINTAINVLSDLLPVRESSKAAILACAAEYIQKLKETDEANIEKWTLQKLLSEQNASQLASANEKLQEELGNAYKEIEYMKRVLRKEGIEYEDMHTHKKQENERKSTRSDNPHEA
Technique: protein-binding microarray
Molecule type: double-stranded DNA, one strand shown
Matrix: in vitro
Concentration: 0.8 µM
Setting: whole 60-bp probe, no competitor
Direction: higher = stronger binding
Shared flanks, not repeated: … GTCTTGATTCGCTTGACGCTGCTG
Sequence | fluorescence intensity
GAACAGCTTCCACCAAGCCTGATCACCGTTTACTAG | 482 a.u.
GAAAAGCCACGCCATGTGATTAACCTTGCTTGATAG | 2280 a.u.
CCTAACTACTATAATCACCCACGATAGCTTCGTACA | 511 a.u.
TGTACGAAGCTATTGCACGTCATTATAGTAGTTAGG | 596 a.u.
TGTACGAAGCTATGTCATGTGCCTATAGTAGTTAGG | 1680 a.u.
CTACATTTAGTCAATCACGTCAACCTGTCTAAATTC | 602 a.u.
CTATTATATTTGAATCTGGTGATAGCACCGAGGTTC | 485 a.u.
GAATAAATGGATAGAAGACGTTAAAAATGAAAGTAG | 545 a.u.

Mixed results
SMILES | target | read-out | mode | concentration | relative to | endpoint | result
Cc1ccc(Nc2nccc(N(C)c3ccc4c(C)n(C)nc4c3)n2)cc1S(N)(=O)=O | Serine/threonine-protein kinase WNK2 (WNK2, Homo sapiens, UniProt Q9Y3S1) | enzyme activity | inhibitor | 0.5 µM | control | remaining activity | 98.2%
